Measurements collected from several papers.
Each line is one published result; not all experiments were run side by side. ± marks the error that the study gave. Positions of bridges follow the written chain, without caps; N, C: chain ends. No end group written: not given here.
Chain of UniProt Q99ZW2 (whole entry, looked up): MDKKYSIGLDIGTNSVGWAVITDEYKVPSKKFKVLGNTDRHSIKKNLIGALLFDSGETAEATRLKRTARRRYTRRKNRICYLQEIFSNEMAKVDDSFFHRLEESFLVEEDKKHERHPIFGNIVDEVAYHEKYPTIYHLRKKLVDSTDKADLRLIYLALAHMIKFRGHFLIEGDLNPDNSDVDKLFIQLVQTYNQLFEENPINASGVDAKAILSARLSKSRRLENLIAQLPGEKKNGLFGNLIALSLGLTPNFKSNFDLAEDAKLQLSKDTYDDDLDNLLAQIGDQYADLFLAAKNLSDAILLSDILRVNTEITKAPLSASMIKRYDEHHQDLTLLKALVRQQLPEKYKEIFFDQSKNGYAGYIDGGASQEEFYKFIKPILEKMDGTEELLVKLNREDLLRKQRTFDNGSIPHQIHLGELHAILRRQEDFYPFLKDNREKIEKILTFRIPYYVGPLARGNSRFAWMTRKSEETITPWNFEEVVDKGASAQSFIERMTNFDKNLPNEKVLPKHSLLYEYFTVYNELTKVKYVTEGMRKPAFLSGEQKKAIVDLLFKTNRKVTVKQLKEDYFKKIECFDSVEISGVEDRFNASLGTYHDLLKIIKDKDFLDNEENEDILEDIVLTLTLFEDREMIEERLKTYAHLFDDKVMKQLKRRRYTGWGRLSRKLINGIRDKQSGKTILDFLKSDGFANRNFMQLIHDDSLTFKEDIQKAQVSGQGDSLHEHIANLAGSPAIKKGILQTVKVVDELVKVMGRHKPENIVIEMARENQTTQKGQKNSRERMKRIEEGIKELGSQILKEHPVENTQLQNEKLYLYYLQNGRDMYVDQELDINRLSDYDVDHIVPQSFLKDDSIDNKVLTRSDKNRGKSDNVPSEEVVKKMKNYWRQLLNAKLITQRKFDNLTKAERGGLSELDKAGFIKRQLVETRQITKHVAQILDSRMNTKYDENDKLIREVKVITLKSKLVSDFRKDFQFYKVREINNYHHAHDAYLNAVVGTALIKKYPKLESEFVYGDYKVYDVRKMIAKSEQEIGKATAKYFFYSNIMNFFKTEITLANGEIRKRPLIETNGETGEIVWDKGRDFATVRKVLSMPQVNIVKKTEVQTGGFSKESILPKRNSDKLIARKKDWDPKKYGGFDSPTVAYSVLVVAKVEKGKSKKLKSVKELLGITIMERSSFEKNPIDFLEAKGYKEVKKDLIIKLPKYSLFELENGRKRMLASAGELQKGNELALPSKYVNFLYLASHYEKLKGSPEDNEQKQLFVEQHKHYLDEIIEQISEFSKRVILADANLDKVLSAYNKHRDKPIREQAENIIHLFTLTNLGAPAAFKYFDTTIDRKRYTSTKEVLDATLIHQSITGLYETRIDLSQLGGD
Chain of UniProt Q2FZ93 (whole entry, looked up): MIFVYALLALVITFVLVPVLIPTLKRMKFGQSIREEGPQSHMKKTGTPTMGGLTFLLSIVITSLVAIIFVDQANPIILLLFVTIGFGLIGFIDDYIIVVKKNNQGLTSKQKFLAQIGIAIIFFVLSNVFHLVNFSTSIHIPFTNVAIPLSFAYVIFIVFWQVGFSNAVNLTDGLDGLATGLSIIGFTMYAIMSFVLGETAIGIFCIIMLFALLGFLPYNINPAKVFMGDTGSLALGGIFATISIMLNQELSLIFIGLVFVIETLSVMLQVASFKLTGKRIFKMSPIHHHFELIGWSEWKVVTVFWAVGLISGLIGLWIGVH
Chain of UniProt Q14994 (whole entry, looked up): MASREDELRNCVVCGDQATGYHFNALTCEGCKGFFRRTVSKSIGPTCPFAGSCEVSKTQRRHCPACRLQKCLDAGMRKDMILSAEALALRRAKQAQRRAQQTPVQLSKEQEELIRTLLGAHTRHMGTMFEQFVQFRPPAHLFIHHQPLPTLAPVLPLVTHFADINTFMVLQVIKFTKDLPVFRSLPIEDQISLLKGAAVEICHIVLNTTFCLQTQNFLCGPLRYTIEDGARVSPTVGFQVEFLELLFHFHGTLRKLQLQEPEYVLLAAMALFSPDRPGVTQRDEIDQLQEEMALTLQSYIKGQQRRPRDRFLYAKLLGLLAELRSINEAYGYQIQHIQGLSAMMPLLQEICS
Chain of UniProt P22629 (whole entry, unmodified, looked up): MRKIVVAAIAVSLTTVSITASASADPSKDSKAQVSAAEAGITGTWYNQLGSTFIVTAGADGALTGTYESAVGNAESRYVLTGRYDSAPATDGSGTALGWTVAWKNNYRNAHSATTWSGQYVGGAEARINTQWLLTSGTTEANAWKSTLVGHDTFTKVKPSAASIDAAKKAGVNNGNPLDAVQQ
Chain of UniProt Q96RI1 (whole entry, looked up): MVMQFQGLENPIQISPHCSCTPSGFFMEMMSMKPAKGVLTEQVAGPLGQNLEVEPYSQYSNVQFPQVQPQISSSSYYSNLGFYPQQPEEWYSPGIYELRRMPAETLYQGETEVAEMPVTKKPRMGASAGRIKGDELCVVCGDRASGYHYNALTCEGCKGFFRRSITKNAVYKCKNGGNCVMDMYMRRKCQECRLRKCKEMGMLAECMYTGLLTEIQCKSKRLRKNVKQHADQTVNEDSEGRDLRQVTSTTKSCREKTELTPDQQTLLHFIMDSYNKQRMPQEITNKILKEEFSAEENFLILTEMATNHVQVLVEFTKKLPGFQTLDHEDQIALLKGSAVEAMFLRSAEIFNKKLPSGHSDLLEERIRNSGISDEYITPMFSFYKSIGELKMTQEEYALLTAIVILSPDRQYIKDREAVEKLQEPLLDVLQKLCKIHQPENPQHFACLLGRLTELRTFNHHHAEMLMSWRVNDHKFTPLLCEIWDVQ
Chain of UniProt O00482 (whole entry, looked up): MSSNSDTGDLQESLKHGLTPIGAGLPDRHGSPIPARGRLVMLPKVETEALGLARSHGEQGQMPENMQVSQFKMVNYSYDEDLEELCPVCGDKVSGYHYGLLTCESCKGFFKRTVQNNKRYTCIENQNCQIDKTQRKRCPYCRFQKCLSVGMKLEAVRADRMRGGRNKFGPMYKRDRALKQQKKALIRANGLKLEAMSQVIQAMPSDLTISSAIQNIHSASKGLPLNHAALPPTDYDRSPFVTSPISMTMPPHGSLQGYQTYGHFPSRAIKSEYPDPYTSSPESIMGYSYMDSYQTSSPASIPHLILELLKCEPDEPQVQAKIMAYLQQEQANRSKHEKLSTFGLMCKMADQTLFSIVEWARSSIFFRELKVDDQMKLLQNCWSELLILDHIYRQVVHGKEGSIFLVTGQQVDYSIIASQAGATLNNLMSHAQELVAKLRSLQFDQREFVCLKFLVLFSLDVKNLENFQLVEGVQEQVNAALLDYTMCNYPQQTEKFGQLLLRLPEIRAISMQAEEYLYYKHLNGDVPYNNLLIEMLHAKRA

Molecule | target or system | test | system | setting | scale | endpoint | value
thalidomide-FITC conjugate | Protein cereblon, with DDB1 (CRBN, Homo sapiens, UniProt Q96SW2) | binding, TR-FRET |  | CRBN-DDB1 complex |  | Kd | 0.096 ± 0.021 µM
ACHPQFYVICSG (disulfide 2-10 (inferred)) (disulfide) | Streptavidin (Streptomyces avidinii, UniProt P22629, E68V/S69T/V71R) | binding, yeast surface display |  | 1 h, 4 °C, together with: Strep-Tactin |  | Kd | 0.0061 ± 0.0003 µM
nonaarginine | PorA peptide pore | peptide binding, planar bilayer single-channel recording |  | pH 7.4, +25 mV, trans side, 150 mM KCl |  | Kd | 3.09 ± 0.3 µM
bleomycin sulfate | CRISPR-associated endonuclease Cas9/Csn1 (cas9, Streptococcus pyogenes serotype M1, UniProt Q99ZW2) | enzyme activity, inhibitor | Streptococcus pyogenes |  |  | IC50 | 2 to 5 µM
Ivermectin | Bile acid receptor (NR1H4, Homo sapiens, UniProt Q96RI1) | coactivator recruitment, antagonist, TR-FRET |  | together with: chenodeoxycholic acid 50 µM |  | IC50 | 0.76 ± 0.09 µM
abamectin | Nuclear receptor subfamily 5 group A member 2 (NR5A2, Homo sapiens, UniProt O00482) | binding, differential scanning fluorimetry |  | human protein |  | IC50 | 9.4 ± 1.4 µM
insulin human |  | refers to: QSER1 mRNA | uninfected mouse, brain | i.p., dose not given | reference: PBS | fold change | 1.2
aspterric acid |  | root length | Arabidopsis thaliana Col-0 seeds | 6.25 µg/mL, 7 days, dark |  | inhibition | 89.3%
(−)-cocaine | cardiac sodium channel (calf) |  |  | batrachotoxin-activated |  | Kd | ~20 µM
hexaarginine | PorA peptide pore | peptide binding, planar bilayer single-channel recording |  | pH 7.4, +20 mV, trans side, 150 mM KCl |  | Kd | 19.5 ± 2 µM
NQVANAQ | Escherichia coli 23S rRNA H69, unmodified | binding, ESI-MS titration | peptide, 50% isopropanol, 150 mM ammonium acetate | together with: RNA 2.7 µM |  | Kd | > 120 µM
DPDPE |  | RP-HPLC | HALO Phenyl-hexyl column | 25 µM, acetic acid/acetonitrile, 10 min gradient |  | retention time | 5.32 min
dynorphin A (1-17) | opioid receptor mouse | binding | CD-1 mouse brain |  |  | Ki | 0.0055 ± 0.0026 µM
abamectin | Nuclear receptor subfamily 1 group I member 3 (Homo sapiens, UniProt Q14994) | receptor activity, inhibitor | cells |  |  | IC50 | 31.4 ± 19 µM
Polymyxin B |  |  | mouse, urine | 20 mg/kg |  | Kim-1 level | 40.1 ng/mL
tunicamycin | mraY (Staphylococcus aureus, UniProt Q2FZ93) | enzyme activity, inhibitor |  |  |  | IC50 | 0.016 µM

A few entries again:
Molecule | target or system | test | system | setting | scale | endpoint | value
abamectin | Nuclear receptor subfamily 5 group A member 2 (NR5A2, Homo sapiens, UniProt O00482) | binding, differential scanning fluorimetry |  | human protein |  | IC50 | 9.4 ± 1.4 µM
DPDPE |  | RP-HPLC | HALO Phenyl-hexyl column | 25 µM, acetic acid/acetonitrile, 10 min gradient |  | retention time | 5.32 min
ACHPQFYVICSG (disulfide 2-10 (inferred)) (disulfide) | Streptavidin (Streptomyces avidinii, UniProt P22629, E68V/S69T/V71R) | binding, yeast surface display |  | 1 h, 4 °C, together with: Strep-Tactin |  | Kd | 0.0061 ± 0.0003 µM
